# Measurements gathered from unrelated publications.
# Compare with care: the assays were run in different laboratories. ± gives the spread as reported.
# OPRK1: Kappa-type opioid receptor (OPRK1, Homo sapiens, UniProt P41145)
# UniProt P41145, sequence (whole entry, unmodified, looked up): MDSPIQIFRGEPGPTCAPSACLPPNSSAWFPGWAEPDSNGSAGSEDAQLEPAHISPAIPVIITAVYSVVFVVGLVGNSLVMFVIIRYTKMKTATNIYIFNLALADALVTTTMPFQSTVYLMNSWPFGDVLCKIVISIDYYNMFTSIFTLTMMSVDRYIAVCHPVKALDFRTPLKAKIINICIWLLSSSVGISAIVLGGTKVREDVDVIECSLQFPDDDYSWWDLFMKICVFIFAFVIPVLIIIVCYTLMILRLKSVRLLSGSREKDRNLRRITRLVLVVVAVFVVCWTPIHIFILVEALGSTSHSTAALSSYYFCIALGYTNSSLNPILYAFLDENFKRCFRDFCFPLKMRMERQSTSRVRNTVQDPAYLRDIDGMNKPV
SMILES,target,test,system,conditions,measurement,result
COC(=O)/C=C/C(=O)N[C@@H]1CC[C@@]2(O)[C@H]3Cc4ccc(O)c5c4[C@@]2(CCN3CC2CC2)[C@H]1O5,OPRK1,"reversible binding, radioligand saturation binding",N2a membranes,with: [3H]compound,Kd,0.00595 ± 0.00094 µM
C[C@@H](NC(=O)[C@@H](N)Cc1ccc(O)cc1)C(=O)NCC(=O)N[C@@H](Cc1ccc(Cl)cc1)C(=O)N(C)CCC[C@@]1(c2ccc(F)cc2)OCc2cc(C#N)ccc21,OPRK1,,,,IC50,0.151 µM
C/C=C1/C[N+]2(Cc3ccccc3)CC[C@]34C(=C(C(=O)OC)[C@H]1C[C@@H]32)Nc1ccccc14 (stereo partly shown),OPRK1,"cAMP inhibition, agonist, HitHunter",CHO-K1,with: forskolin,EC50,> 10 µM
Oc1cccc(N2C3CCC2CN(CCc2ccccc2)C3)c1,OPRK1,cell-based,,,IC50,0.698 ± 0.04 µM
COc1cc(C(=O)N2CC[C@@H](O)[C@@H](N)C2)cc2nc(-c3cc4ccccc4n3CC3CC3)n(C)c12,OPRK1,"antagonist, GTPγS binding",,,IC50,79.4 µM
Cc1cc(O)cc(C)c1C[C@H](N)C(=O)N1Cc2ccccc2CC1C(=O)NCC(=O)NC(Cc1ccc(Cl)cc1)C(=O)N(C)CCC[C@@]1(c2ccc(F)cc2)OCc2cc(C#N)ccc21 (stereo in doubt),OPRK1,,,,IC50,0.324 µM
C/C=C1/CN2CC[C@]34c5ccccc5N[C@@H]3[C@H](C(=O)OC)[C@H]1C[C@H]24,OPRK1,"cAMP inhibition, agonist, HitHunter",CHO-K1,with: forskolin,EC50,> 10 µM
C[C@@H]1N=C(c2ccccc2F)c2cc(Br)ccc2-n2cnc(C(=O)O)c21,OPRK1,binding,,,IC50,> 10 µM
NC(N)=Nc1ccc2[nH]c3c(c2c1)C[C@@]1(O)[C@H]2Cc4ccc(O)c5c4[C@@]1(CCN2CC1CC1)[C@H]3O5,"OPRK1 (Homo sapiens, UniProt P41145, E297A)",,,,Ki,0.022 µM
Cc1cc(O)cc(C)c1C[C@H](N)C(=O)N[C@H](C)C(=O)NCC(=O)N[C@@H](Cc1ccc(Cl)cc1)C(=O)N(C)CCC[C@@]1(c2ccc(F)cc2)OCc2cc(C#N)ccc21,OPRK1,,,,IC50,0.155 µM
Cc1cccc(C)c1N1C(=O)[C@H](CC2CNc3ccccc32)NC2(CCN(C)CC2)C1=O (stereo partly shown),OPRK1,binding,,,Ki,> 10 µM
C/C=C1/C[N+]2(CCC)CC[C@]34C(=C(C(=O)OC)[C@H]1C[C@@H]32)Nc1ccccc14 (stereo partly shown),OPRK1,"cAMP inhibition, agonist, HitHunter",CHO-K1,with: forskolin,EC50,> 10 µM
Oc1cccc(CCN(CCc2ccccc2)CC2CC2)c1,OPRK1,"beta-arrestin 2 recruitment, partial agonist, PathHunter luminescence",U2OS,"90 min, 37 °C",EC50,0.04 µM

# Excerpt of the above:
SMILES,target,test,system,conditions,measurement,result
COc1cc(C(=O)N2CC[C@@H](O)[C@@H](N)C2)cc2nc(-c3cc4ccccc4n3CC3CC3)n(C)c12,OPRK1,"antagonist, GTPγS binding",,,IC50,79.4 µM
